Results of several laboratories.
Each line is one published result; not all experiments were run side by side. ± gives the spread as reported. Values after ≈ are worked out from the molar mass of the structure shown.
CYP2C19: Cytochrome P450 2C19 (CYP2C19, Homo sapiens, UniProt P33261)
Sequence of UniProt P33261 (whole entry, looked up): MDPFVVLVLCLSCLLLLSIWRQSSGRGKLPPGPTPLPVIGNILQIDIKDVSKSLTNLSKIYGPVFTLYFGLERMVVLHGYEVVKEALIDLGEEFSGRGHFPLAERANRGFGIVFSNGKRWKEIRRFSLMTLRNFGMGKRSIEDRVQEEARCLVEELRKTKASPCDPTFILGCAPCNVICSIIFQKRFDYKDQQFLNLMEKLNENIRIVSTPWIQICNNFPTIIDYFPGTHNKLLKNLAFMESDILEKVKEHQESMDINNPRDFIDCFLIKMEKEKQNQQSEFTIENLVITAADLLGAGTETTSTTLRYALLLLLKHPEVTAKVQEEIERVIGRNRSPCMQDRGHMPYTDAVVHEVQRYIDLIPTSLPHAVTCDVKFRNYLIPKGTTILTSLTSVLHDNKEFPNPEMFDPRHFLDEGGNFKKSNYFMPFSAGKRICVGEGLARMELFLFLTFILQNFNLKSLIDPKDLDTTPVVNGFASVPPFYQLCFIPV
Sequence of UniProt P61073 (whole entry, looked up): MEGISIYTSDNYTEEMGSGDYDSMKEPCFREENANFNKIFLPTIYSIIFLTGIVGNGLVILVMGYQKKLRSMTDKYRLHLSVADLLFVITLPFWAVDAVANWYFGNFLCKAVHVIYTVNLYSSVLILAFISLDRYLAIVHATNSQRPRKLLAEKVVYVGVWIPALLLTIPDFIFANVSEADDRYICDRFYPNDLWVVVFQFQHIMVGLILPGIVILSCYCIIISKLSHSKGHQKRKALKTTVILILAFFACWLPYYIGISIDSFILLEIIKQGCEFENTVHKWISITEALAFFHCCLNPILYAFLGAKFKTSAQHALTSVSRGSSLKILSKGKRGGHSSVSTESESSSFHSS
Sequence of UniProt Q06520 (whole entry, looked up): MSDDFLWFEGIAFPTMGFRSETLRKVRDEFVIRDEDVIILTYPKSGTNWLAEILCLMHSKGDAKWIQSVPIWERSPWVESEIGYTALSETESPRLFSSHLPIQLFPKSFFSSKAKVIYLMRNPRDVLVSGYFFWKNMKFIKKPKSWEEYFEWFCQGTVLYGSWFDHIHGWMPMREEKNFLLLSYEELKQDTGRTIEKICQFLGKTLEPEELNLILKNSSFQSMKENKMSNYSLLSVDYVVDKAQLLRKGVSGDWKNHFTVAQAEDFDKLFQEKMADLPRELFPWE
Sequence of UniProt P16662 (whole entry, looked up): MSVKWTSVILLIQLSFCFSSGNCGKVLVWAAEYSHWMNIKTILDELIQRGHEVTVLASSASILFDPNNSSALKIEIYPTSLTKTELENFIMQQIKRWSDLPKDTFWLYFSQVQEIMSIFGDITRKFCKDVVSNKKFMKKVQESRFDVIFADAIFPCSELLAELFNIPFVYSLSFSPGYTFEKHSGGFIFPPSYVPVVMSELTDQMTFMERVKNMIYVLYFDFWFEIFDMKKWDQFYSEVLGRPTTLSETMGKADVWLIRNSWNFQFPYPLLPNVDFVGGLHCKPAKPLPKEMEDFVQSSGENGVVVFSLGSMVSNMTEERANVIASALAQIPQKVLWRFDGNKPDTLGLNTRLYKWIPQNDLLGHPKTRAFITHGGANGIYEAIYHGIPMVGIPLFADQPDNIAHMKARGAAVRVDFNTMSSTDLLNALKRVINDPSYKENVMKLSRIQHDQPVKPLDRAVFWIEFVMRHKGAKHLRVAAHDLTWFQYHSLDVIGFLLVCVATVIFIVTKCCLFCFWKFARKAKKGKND

With N[C@]1(c2ccccc2Cl)CCC[C@H](O)C1=O the AUC(0-inf) was 29200 ± 6420 ng·h/mL (Wistar rat, plasma; intravenous, 20 mg/kg).
With CC(C)C[C@H](NC(=O)[C@H](CC(N)=O)NC(=O)[C@H](CCCCN)NC(=O)[C@H](CC(C)C)NC(=O)[C@H](Cc1ccccc1)NC(=O)CNC(=O)[C@H](CC(C)C)NC(=O)[C@@H](N)Cc1ccccc1)C(=O)N[C@@H](Cc1ccccc1)C(N)=O the CC50 was 79.8 µg/mL (≈ 72.7 µM) (Huh-7.5.1; cell growth or viability, MTT; 48 h).
CC(C)[C@H](NC(=O)CNC(=O)[C@H](CCC(N)=O)NC(=O)[C@H](C)N)C(=O)O: “subjects with severe adverse events” 0% (human; intravenous infusion, 45 mg/kg/h, 2 h infusion).
With COc1ccc(CNc2nc(N3CCC[C@H]3CO)ncc2C(=O)NN)cc1Cl the revertant count was 33 ± 4 (Salmonella typhimurium; TA98; 1000 µg/plate, 48 h).
CN[C@](C)(C[18F])C(=O)O has a tracer uptake of 2.3 %ID/g (SK-OV-3 tumour model; host not given, bone; 15 min, tumour-bearing).
For CN1C(=O)[C@@H](Cc2ccc(O)cc2)NC(=O)CNC(=O)[C@H](Cc2ccc3ccccc3c2)NC(=O)[C@H](CCCNC(=N)N)NC(=O)[C@H]1CCCNC(=O)c1ccc(CNC(=O)CN2CCN(CC(=O)O)CCN(CC(=O)O)CCN(CC(=O)O)CC2)cc1 [gallium-68 labelled], the SUVmax was 3.86 (C-X-C chemokine receptor type 4 (CXCR4, Homo sapiens, UniProt P61073); PET; human, NSCLC lesion).
CC1(C)C=Cc2c(cc3oc(-c4ccccc4)cc(=O)c3c2O)O1 has a viability of 86.9 ± 5.4% (differentiated SH-SY5Y; MTT; 100 µM; relative to: control).
The serum creatinine of CN(C)C(CNC(=O)Nc1cc(C(F)(F)F)ccc1N1CCOCC1)c1ccncc1 (stereo not drawn) is reported as 0.2 mg/dL (mouse, serum; intraperitoneal, 120 mg/kg single dose).
COc1ccc(CNc2nc(N3CCC[C@H]3CO)ncc2C(=O)NNC(=O)c2cnc(N3CCC[C@H]3CO)nc2NCc2ccc(OC)c(Cl)c2)cc1Cl gave a revertant count of 129 ± 26 (Salmonella typhimurium; TA97a; 500 µg/plate, 48 h).
COc1ccc(CCNc2cc(-c3ccccc3)nc3ncnn23)cc1 has an intrinsic clearance of 9.8 mL/min/g (mouse liver microsomes).
CCC(=O)N(C)c1ccc(Cl)c(Cl)c1 has a revertants of 2 ± 2.6 revertants/plate (Salmonella typhimurium; Ames test; TA1537; 0.10 mg/plate, without S9 activation).
For Nc1nc2c([C@@H]3O[C@@H]4COP(=O)(O)O[C@H]5[C@@H](O)[C@H](c6snc7c(=O)[nH]c(N)nc67)O[C@@H]5COP(=O)(O)O[C@H]4[C@H]3O)snc2c(=O)[nH]1, the absorption maximum was 331 nm (water).
CSCC[C@@H]1NC(=O)[C@@H]2CSSC[C@H](NC(=O)[C@H](CO)NC(=O)[C@H](C)N)C(=O)N[C@@H](CCCNC(=N)N)C(=O)N[C@@H]([C@@H](C)O)C(=O)N3CCC[C@H]3C(=O)N[C@@H](CCCCN)C(=O)N[C@@H](CC(=O)O)C(=O)N[C@H]3CSSC[C@H](NC(=O)[C@H](CCCCN)NC(=O)[C@H](CCCNC(=N)N)NC(=O)[C@H](CC(N)=O)NC1=O)C(=O)N[C@@H](CCCCN)C(=O)N[C@H]1CSSC[C@H](NC(=O)[C@@H]4CCCN4C(=O)[C@H](CC(=O)O)NC(=O)[C@H](C)NC3=O)C(=O)N[C@@H](C)C(=O)N[C@@H](CCCCN)C(=O)N[C@@H](CCC(=O)O)C(=O)N[C@@H]([C@@H](C)O)C(=O)NCC(=O)N[C@@H](CSSC[C@@H](C(N)=O)NC(=O)[C@H](CCCNC(=N)N)NC(=O)[C@H](CC(N)=O)NC1=O)C(=O)N1CCC[C@H]1C(=O)N[C@@H](Cc1ccc(O)cc1)C(=O)NCC(=O)N[C@@H](CCCCN)C(=O)N2 — result for “blood urea nitrogen”: 11.4 mg/dL (DA rat, pristane-induced arthritis, serum; subcutaneous, 0.1 mg/kg every other day, 21 days).
CC[C@H](C)C(=O)N1CCC(NC(=O)Nc2ccc(OC(F)(F)F)c(F)c2)CC1: “subjects with extrasystoles TEAE” 0% (healthy volunteers; oral, 0.5 mg single dose, ventricular extrasystoles).
Nc1nc2c([C@@H]3O[C@@H]4COP(=O)(O)O[C@H]5[C@@H](O)[C@H](n6cnc7c(=O)[nH]c(N)nc76)O[C@@H]5COP(=O)(O)O[C@H]4[C@H]3O)scc2c(=O)[nH]1: “molar absorption coefficient” 3540 M⁻¹ cm⁻¹ (water).
With O=C(O)CCC(NP(=O)(O)OCCC[C@@H](NC(=O)CCC(NC(=O)CCCCCNC(=O)CCCCCNC(=O)c1ccc([18F])cc1)C(=O)O)C(=O)O)C(=O)O (stereo partly drawn) the tracer uptake was 0.06 %ID/g (CWR22Rv1 tumour model; host not given, heart; intravenous, 2 h, tumour-bearing).
CN(C)CC1CCCCC1(O)c1cccc(O)c1 (stereo not drawn) gave a Papp B-to-A of 15.2 ± 0.7 ×10⁻⁶ cm/s (human P-glycoprotein; Caco-2 TC7 monolayer; 100 µM, 3 h, apical pH 7.4, basolateral pH 7.4, together with: cyclosporine A 10 µM).
CNc1nc(SC)nc2ccccc12 has a kinetic solubility of ≥ 443 µM (CLND; phosphate-buffered saline; 1 (unit not given), pH 7.4).
With O=C(O)CCC(NP(=O)(O)OCCC[C@@H](NC(=O)CCC(NC(=O)c1ccc([18F])cc1)C(=O)O)C(=O)O)C(=O)O (stereo partly drawn) the tracer uptake was 0.5 %ID/g (CWR22Rv1 tumour model; host not given, heart; intravenous, 2 h, tumour-bearing).
The half-life of C=C(C)[C@@H]1CCC(CO)=C[C@H]1c1c(O)cc(CCCCC)cc1O is reported as 18.8 h (CYP2C19; human; 750 mg single dose, alone, fluconazole arm baseline).
With COc1c2c(cc3oc(-c4ccccc4)cc(=O)c13)OC(C)(C)C=C2 the viability was 97.1 ± 1.7% (differentiated SH-SY5Y; MTT; 0.1 µM; relative to: control).
With C[C@]12CC[C@H](O)CC1CCC1C2[C@H](O)C(=O)[C@]2(C)[C@@H](c3ccc(=O)oc3)CC[C@]12O (stereo partly drawn) the activity ratio was 31.1 fold (Sulfotransferase 2A1 (SULT2A1, Homo sapiens, UniProt Q06520); sulfation, substrate; human kidney cytosol; pH 7.4; relative to: liver cytosol over kidney cytosol).
COc1cc(C(=O)NCCOCCOCCOCCNC(=O)c2ccc([18F])nc2)ccc1NC(=O)C1NC(CC(C)(C)C)C(C#N)(c2ccc(Cl)cc2F)C1c1cccc(Cl)c1F (stereo not drawn) has a tracer uptake of 0.94 %ID/g (HepG2 tumour model; host not given, stomach; 4 h, tumour-bearing).
The tracer uptake of O=C(O)CCC(NP(=O)(O)OCCC[C@@H](NC(=O)CCC(NC(=O)CCCCCNC(=O)c1ccc([18F])cc1)C(=O)O)C(=O)O)C(=O)O (stereo partly drawn) is reported as 24.4 %ID/g (CWR22Rv1 tumour model; host not given, kidney; intravenous, 1 h, tumour-bearing).
Under “apparent volume of distribution (Vz/F)”, C[C@@](O)(C(F)F)[C@H](NC(=O)c1ccc(C#CC#CC2CC2)cc1)C(=O)NO is recorded as 8.5 ± 5.9 L/kg (beagle dogs; oral, 50 mg/kg).
For C=C(C)[C@@H]1CCC(C(=O)O)=C[C@H]1c1c(O)cc(CCCCC)cc1O, “decrease in AUC(0-tau)” read 34% (CYP2C19; concentration not given, single dose, together with: fluconazole steady state).
With CCCCCc1cc(O)c2c(c1)OC(C)(C)C1CCC(CO)=CC21 (stereo not drawn) the inhibition was ≤ 50% (UDP-glucuronosyltransferase 2B7 (UGT2B7, Homo sapiens, UniProt P16662); enzyme activity, inhibitor; pooled human kidney microsomes; up to 100 µM, together with: zidovudine).
